# Measured values from different studies.
# Protocols differ between the studies behind these lines. Several values in a cell are separate wells, animals, samples, runs or records. ± marks the error that the study gave.
# UCHL1: Ubiquitin carboxyl-terminal hydrolase isozyme L1 (UCHL1, Homo sapiens, UniProt P09936)
# UniProt P09936, sequence (whole entry, looked up): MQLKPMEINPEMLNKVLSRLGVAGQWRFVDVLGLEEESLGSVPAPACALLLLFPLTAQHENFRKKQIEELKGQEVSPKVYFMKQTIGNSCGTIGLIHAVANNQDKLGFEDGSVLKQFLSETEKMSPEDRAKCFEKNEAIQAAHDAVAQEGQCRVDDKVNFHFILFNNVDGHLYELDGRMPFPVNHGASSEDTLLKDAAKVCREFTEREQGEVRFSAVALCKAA
# Nicotinic acetylcholine receptor alpha1/beta1/epsilon/delta: Nicotinic acetylcholine receptor alpha1/beta1/epsilon/delta (Mus musculus, UniProt P02716+P04756+P09690+P20782)
# UniProt P09690, sequence (whole entry, looked up): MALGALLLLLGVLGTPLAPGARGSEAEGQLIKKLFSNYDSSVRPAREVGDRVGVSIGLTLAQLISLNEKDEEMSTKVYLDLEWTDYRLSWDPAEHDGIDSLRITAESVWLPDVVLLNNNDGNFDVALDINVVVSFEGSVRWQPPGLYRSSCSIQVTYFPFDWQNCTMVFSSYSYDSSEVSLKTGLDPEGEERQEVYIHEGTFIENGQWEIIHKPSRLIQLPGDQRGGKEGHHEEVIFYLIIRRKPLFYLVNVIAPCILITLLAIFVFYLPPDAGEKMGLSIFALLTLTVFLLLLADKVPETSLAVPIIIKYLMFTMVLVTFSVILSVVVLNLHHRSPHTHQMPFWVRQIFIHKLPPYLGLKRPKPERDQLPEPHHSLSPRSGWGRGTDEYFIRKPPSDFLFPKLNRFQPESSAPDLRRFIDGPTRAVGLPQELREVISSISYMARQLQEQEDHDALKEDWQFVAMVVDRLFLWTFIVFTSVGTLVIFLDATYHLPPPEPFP
# UniProt P20782, sequence (whole entry, looked up): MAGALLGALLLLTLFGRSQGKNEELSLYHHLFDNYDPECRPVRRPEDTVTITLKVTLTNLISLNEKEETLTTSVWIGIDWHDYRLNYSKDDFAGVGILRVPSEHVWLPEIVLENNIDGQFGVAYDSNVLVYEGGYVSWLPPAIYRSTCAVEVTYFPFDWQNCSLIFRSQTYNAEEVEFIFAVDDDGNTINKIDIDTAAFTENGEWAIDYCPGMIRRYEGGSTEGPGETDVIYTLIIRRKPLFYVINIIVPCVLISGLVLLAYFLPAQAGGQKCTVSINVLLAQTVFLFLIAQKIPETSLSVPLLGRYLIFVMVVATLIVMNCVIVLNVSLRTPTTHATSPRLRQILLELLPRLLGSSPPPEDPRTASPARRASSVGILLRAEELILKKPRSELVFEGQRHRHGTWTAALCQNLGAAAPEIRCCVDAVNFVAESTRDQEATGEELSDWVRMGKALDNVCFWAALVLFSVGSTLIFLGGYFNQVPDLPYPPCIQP
# UniProt P02716, sequence (whole entry, looked up): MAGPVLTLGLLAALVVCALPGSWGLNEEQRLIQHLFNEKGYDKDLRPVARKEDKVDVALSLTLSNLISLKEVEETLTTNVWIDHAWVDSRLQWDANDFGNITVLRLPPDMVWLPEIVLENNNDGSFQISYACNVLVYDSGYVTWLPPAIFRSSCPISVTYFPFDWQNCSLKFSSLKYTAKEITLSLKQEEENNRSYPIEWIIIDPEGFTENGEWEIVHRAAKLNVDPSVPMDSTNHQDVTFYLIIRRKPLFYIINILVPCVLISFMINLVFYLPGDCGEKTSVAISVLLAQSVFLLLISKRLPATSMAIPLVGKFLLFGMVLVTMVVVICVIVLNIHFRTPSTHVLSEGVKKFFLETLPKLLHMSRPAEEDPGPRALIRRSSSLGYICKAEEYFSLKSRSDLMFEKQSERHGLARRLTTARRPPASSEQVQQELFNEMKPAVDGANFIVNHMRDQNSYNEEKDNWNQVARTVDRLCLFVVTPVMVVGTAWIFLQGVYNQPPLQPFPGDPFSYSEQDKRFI
# UniProt P04756, sequence (whole entry, looked up): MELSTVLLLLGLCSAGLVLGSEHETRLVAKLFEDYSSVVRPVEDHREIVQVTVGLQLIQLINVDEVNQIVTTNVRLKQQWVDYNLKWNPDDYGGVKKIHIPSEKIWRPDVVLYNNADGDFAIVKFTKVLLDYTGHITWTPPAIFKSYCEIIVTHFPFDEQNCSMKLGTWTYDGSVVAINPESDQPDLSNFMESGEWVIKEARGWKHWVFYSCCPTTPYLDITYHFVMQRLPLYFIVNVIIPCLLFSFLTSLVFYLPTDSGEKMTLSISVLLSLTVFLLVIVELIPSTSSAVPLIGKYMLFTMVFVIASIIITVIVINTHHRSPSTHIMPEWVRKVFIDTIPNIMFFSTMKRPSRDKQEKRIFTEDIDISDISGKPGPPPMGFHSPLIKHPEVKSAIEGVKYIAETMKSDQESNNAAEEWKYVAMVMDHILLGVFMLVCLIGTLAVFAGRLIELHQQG
# MYO3A: Myosin-IIIa (MYO3A, Homo sapiens, UniProt Q8NEV4)
# UniProt Q62351, sequence (whole entry, looked up): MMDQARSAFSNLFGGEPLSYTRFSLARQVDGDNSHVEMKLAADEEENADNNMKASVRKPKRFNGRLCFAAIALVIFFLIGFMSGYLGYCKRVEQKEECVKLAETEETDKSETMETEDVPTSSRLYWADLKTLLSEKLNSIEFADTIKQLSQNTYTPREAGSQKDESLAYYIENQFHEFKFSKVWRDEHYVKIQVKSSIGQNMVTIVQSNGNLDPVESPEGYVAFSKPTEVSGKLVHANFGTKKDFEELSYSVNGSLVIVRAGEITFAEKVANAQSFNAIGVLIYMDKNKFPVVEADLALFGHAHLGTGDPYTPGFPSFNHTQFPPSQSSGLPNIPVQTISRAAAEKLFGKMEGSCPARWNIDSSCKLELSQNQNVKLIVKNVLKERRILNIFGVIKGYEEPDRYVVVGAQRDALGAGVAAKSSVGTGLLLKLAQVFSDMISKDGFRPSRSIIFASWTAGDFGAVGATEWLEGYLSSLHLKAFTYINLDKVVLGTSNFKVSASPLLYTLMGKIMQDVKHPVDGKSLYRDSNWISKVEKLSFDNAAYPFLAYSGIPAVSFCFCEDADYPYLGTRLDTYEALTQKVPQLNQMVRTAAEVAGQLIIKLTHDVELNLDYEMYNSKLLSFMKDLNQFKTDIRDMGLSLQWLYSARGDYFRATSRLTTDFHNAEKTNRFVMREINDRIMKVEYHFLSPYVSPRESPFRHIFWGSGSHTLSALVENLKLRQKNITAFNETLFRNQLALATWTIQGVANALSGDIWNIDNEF
# UniProt Q8NEV4, sequence (whole entry, looked up): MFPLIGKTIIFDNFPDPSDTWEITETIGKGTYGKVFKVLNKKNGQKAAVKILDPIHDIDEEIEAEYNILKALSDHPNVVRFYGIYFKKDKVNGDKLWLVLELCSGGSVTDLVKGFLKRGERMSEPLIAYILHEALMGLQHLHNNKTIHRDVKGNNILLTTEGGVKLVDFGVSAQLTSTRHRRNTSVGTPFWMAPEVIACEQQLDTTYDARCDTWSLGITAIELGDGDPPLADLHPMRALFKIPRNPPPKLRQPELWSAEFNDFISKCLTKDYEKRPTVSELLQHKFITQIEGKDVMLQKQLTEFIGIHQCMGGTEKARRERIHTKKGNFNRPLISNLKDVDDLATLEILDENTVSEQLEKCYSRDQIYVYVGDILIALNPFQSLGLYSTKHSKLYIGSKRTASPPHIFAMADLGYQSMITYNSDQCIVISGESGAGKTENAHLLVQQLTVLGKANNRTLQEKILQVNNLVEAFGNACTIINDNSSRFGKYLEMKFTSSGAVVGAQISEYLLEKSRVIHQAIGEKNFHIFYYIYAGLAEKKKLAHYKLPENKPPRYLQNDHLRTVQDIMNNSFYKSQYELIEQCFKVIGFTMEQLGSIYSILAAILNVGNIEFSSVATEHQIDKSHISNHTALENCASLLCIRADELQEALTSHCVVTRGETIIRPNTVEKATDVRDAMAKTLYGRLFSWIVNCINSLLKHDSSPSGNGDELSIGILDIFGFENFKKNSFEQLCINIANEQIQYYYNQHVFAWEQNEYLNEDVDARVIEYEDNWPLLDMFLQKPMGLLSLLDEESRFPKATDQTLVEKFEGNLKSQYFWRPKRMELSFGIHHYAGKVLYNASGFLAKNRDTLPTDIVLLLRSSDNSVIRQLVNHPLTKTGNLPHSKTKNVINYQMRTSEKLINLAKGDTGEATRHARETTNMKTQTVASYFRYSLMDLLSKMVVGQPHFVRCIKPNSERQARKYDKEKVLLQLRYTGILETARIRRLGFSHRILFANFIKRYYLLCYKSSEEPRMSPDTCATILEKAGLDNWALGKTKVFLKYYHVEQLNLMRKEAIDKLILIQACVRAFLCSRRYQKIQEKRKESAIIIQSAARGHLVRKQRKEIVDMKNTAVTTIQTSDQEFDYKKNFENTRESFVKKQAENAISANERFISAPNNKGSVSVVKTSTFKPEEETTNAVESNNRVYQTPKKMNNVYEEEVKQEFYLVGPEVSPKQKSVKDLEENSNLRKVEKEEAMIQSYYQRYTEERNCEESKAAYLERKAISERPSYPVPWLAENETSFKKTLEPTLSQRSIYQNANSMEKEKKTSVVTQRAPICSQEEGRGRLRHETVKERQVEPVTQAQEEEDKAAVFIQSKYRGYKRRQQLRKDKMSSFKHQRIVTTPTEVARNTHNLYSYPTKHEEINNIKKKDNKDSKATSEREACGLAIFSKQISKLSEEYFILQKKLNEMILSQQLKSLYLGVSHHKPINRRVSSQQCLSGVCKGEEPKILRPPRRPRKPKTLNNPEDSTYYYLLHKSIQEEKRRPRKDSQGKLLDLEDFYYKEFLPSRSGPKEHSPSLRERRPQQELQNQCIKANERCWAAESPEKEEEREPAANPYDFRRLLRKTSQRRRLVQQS
# UniProt Q06520, sequence (whole entry, looked up): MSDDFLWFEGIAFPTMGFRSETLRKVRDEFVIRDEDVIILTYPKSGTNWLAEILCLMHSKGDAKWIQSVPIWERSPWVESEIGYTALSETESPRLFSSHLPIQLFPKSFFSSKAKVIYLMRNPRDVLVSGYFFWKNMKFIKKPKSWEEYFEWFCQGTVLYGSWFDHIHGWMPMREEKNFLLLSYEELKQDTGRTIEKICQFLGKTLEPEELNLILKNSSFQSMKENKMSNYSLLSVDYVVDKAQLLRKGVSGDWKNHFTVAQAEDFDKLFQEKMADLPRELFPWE
SMILES,target,assay,system,setting,how to read,endpoint,result
COc1cc2nccc(Oc3ccc(NC(=O)c4cc5c(n(-c6ccccc6)c4=O)CCCC5=O)nc3)c2cc1OC,"DDR2 (Homo sapiens, UniProt Q16832)","cell viability, CellTiter-Glo",Ba/F3 expressing recombinant kinase,,relative to: DDR2 IC50 over AXL IC50,selectivity ratio,> 100
CN(C(=O)n1cnc(-c2ccc[n+]([O-])c2)c1)C1CCCCC1,"Carboxylesterase 1C (Ces1c, Rattus norvegicus, UniProt P10959)","enzyme activity, ABPP","rat, brain","oral, 30 mg/kg/day, 1 days",relative to: vehicle,fold change,-4.7
[2H]c1c([2H])c([C@]2([2H])CCCN2C(=O)C(C)(C)Oc2ccc3cn[nH]c3c2)c([2H])c([2H])c1C([2H])([2H])[2H],"ACVR2B (Homo sapiens, UniProt Q13705)",KINOMEscan,,1 µM,relative to: DMSO control,remaining binding,83%
CCOC(=O)COc1ccc2c(=O)c3ccccc3oc2c1,"ache (Electrophorus electricus, UniProt O42275)",enzyme activity,,"3.36 µM, with: substrate 0.86 mM",higher = faster reaction,reaction velocity,0.0009 a.u.
O=c1oc(-c2cccc(F)c2)ns1,"PSMB5 (Homo sapiens, UniProt P28074)","enzyme inactivation, inhibitor",human PA28-activated proteasome,,,kobs/[I],31.3 M⁻¹ s⁻¹
N#C[C@@H]1CC(F)(F)CN1C(=O)CNC(=O)c1ccnc2ccc(OCCCN3CCN(C(=O)CN4CCN(CC(=O)[O-])CCN(CC(=O)[O-])CC4)CC3)cc12.[18F-].[Al+3],"Fibroblast activation protein alpha (Rattus norvegicus, UniProt A0A9K3Y732)",PET,"model, rat, HFpEF, HFD/L-NAME","intravenous, 0.05 MBq/g, 30 min, seventh week",,myocardial SUVmax,1.98 ± 0.25
CN1CCN(c2cc(-c3ccncc3)c(-c3ccc4ccccc4c3)nn2)CC1,"P2Y purinoceptor 2 (P2RY2, Homo sapiens, UniProt P41231)","agonist, FLIPR",,12.5 µM,,activation,-13.2%
CCCCCC(=O)O,"Albumin (ALB, Homo sapiens, UniProt P02768)",differential scanning calorimetry,,"concentration not given, second transition, HSA 15 µM",relative to: HSA alone,melting temperature change,-2.7 °C
C[C@H](N)C(=O)N[C@@H](CCCNC(=N)N)C(=O)N[C@H](C(=O)N[C@@H](CCCC[N+](C)(C)C)C(=O)N[C@@H](CCC(N)=O)C(=O)N[C@H](C(=O)N[C@@H](C)C(N)=O)[C@@H](C)O)[C@@H](C)O,"SGF29, TTD (Homo sapiens, UniProt Q96ES7)","binding, ITC",,,relative to: Kme3 peptide KD over compound KD,preference over Kme3 peptide,1.3 fold
C[C@H]1CN(c2n[nH]c3nc(N[C@H]4CC[C@H](NS(=O)(=O)CCC(F)(F)F)CC4)ncc23)CCO1,"CTP synthase 1 (Homo sapiens, UniProt P17812)","Kinobeads competition, item: CTPS",,"20 µM, unit not given",relative to: vehicle,remaining binding,1.22
CCc1ccc(C(=O)CCl)cc1,UCHL1,"covalent, intact protein LC-MS",,12.5 µM,,labelling,13.7%
Clc1cccc(COc2ccccc2CNCc2cccnc2)c1,"Aminoglycoside N(3)-acetyltransferase IV (aacC4, Salmonella sp, UniProt P08988)","neomycin acetylation, inhibitor",,with: neomycin,,highest concentration without inhibition,> 200 µM
O=C(O)COP(=O)(O)O,"TPI1 (Saccharomyces cerevisiae, UniProt P00942, S211G/Y208T)","enzyme activity, competitive inhibitor, GPDH/NADH-coupled",,"pH 8.9, 25 °C, ionic strength 0.1 NaCl, with: glyceraldehyde 3-phosphate substrate",relative to: mutant over wild type,Ki ratio,6.5
CC[N+]1(CC)CCN(c2ccccc2C)CC1,Nicotinic acetylcholine receptor alpha1/beta1/epsilon/delta,"ion current, inhibitor, two-electrode voltage clamp",Xenopus oocytes,"30 µM, after co-application, unit not given, with: ACh 30 µM",relative to: ACh alone,ACh response,0.668 ± 0.463
O=C(O)Cc1c[nH]cn1,"SLC6A6 (Homo sapiens, UniProt P31641, Y138A)","binding, microscale thermophoresis",,"62.5 µM, room temperature, with: 50 nM labelled protein",higher = more binding,normalised MST signal,0.288
COc1cc(/C=C/c2ccc(O)cc2)cc(OC)c1,"O-methyltransferase (Sorghum bicolor, UniProt A0A1B6PFV1, W279A)",isothermal titration calorimetry,,"concentration not given, RSV+",,binding stoichiometry N,1.12 ± 0.012 sites
CC12CCC(CC1)C(C)(C)O2,"1,8-cineole 2-endo-monooxygenase (cinA, Citrobacter braakii, UniProt Q8VQF6, N242A)","NADPH consumption, substrate",,"200 µM, pH 7.8, room temperature, N242A variant, 50 mM Tris, with: Fpr and Cdx",,kcat,1.33 ± 0.177 s⁻¹
O=C(Nc1cccnn1)N1CCC(=Cc2cccc(Oc3ccc(C(F)(F)F)cn3)c2)CC1,"muscarinic receptor, rat",binding,,"50 µM, with: [3H]oxotremorine M",,inhibition,38%
Oc1c(Cl)cc(-c2ccccc2F)cc1Cl,"SULT2A1 (Homo sapiens, UniProt Q06520)",substrate,,"pH 7.0, 37 °C, with: PAPS 200 µM",,Vmax,69 nmol/min/mg
COc1cc(N)c(Cl)cc1C(=O)NC1CN2CCC1CC2 (stereo not drawn),"GPR32 (Homo sapiens, UniProt O75388)","β-arrestin recruitment, TANGO luminescence",,concentration not given,relative to: basal luminescence,log2 fold change,0.101
NNCCc1c[nH]c2ccccc12,"Secernin-3 (Homo sapiens, UniProt Q0VDG4)",ABPP-SILAC,HEK-293T cell lysate,1 µM,relative to: DMSO,SILAC ratio,0.5
COc1ccc2c(c1)/C(=C/c1cnc[nH]1)C(=O)N2,"TRPM8 (Homo sapiens, UniProt Q7Z2W7)",antagonist,HEK293,5 µM,relative to: control,remaining activity,98.7 ± 7.49%
COc1cc(Nc2ncc(F)c(Nc3ccc4c(n3)NC(=O)C(C)(C)O4)n2)cc(OC)c1OC,MYO3A,KINOMEscan,,10 µM,,inhibition,10%
Nc1ncc(-c2nc(N3CCOCC3)nc(N3CCOCC3)n2)c(C(F)F)n1,"MTOR (Homo sapiens, UniProt P42345)","enzyme activity, inhibitor",,10 µM,,remaining activity,0%
CN(C(=O)n1cnc(-c2ccc[n+]([O-])c2)c1)C1CCCCC1,"CCR1 (Homo sapiens, UniProt P32246)","radioligand binding, inhibitor",,10 µM,,inhibition,-3%
Cc1cccc(C)c1OCC(=O)N[C@@H](Cc1ccccc1)[C@@H](O)C[C@H](Cc1ccccc1)NC(=O)[C@H](C(C)C)N1CCCNC1=O,"Ribosomal processing cysteine protease Prp (prp, Staphylococcus aureus, UniProt Q2FXS9, N63Q)","enzyme activity, inhibitor",,"10 µM, prp 21.4 nM, with: FITC peptide substrate 0.5 µM",,inhibition,34.4 ± 17.7%
CC(=O)NC[C@H]1[C@H](O)[C@H](O)[C@@H]2[C@H](O)C[C@@H](CO)N21,human placental β-N-acetylglucosaminidase,,,"0.01288 µM, run 1, with: p-nitrophenyl GlcNAc",,inhibition,65%
O=C(Nc1cnccc1Cl)N1CCN(Cc2ccc3c(c2)OC(F)(F)O3)CC1,"HIPK2 (Homo sapiens, UniProt Q9H2X6)","kinase activity, inhibitor",,"50 µM, with: myelin basic protein substrate",,inhibition,4%
O=C(c1ccc(Cl)cc1)N1CCN2C(=O)N(OC(=O)N3CCOc4ccccc43)C(=O)C2C1 (stereo not drawn),"PREP (Homo sapiens, UniProt P48147)",MS-based ABPP,SW-620 conditioned medium,"10 µM, 1 h, 37 °C","relative to: compound over DMSO, lower = more inhibition",mean protein ratio,1.04
C[N+]1(C)CCN(c2ccc(Cl)cc2)CC1.[I-],Nicotinic acetylcholine receptor alpha1/beta1/epsilon/delta,"peak current, agonist, two-electrode voltage clamp",Xenopus oocytes,30 µM,relative to: ACh 30 µM,response relative to ACh,50%
CC(C)(COP(=O)(O)OP(=O)(O)OCC1OC(n2cnc3c(N)ncnc32)C(O)C1OP(=O)(O)O)C(O)C(=O)NCCC(=O)NCCSC(=O)CC(O)(CC(=O)O)C(=O)O (stereo not drawn),"gltA (Thermoplasma acidophilum, UniProt P21553, D318G)","citryl-CoA hydrolysis, substrate",,concentration not given,relative to: wild type over mutant,decrease in hydrolysis activity,~2300 fold
CC[C@@H](C)[C@@H](NC(=O)[C@@H](Cc1ccc(O)cc1)NC(=O)[C@H]1CCCN1C(=O)[C@@H](CCCNC(=N)N)NC(=O)[C@H](N)Cc1c[nH]cn1)C(=O)N[C@H](C)C(=O)N[C@H](Cc1c[nH]cn1)C(=O)N[C@H](CCCNC(=N)N)C(=O)N[C@H](CCCCNC(=O)c1cccc(S(=O)(=O)F)c1)C(=O)N[C@H](Cc1ccc(O)cc1)C(=O)N[C@H](CO)C(=O)N[C@H](Cc1ccccc1)C(N)=O,"Transferrin receptor protein 1 (Tfrc, Mus musculus, UniProt Q62351)",flow cytometry,MC-38,"2 h, unit not given",relative to: 0 h,surface expression,0.878 and 0.887
CC1(C)C(C=C(Cl)Cl)C1C(=O)OCc1cccc(Oc2ccccc2)c1 (stereo not drawn),"uncharacterized protein (Anopheles coluzzii, UniProt A0A6E8VQK1)","enzyme activity, inhibitor",Sf9 cell homogenate,"46.51 µM, 0.1667 h, with: α-naphthyl acetate substrate",relative to: no inhibitor,remaining activity,94.3%
COc1ccc(N2C(=O)N(c3c(C)cccc3Cl)Cc3cnc(Nc4ccc(C5CCN(C)CC5)cc4OC)nc32)nc1,MYO3A,kinase activity,,0.5 µM,,inhibition,28%
C#CCN1C(=O)C2(C(C#N)=C(N)OC(C)=C2C(=O)OCCOC)c2ccccc21 (stereo not drawn),UCHL1,"covalent, intact protein LC-MS",,12.5 µM,,labelling,14.3%
CCCCOP(=O)(O)C(C)=O,"dxs (Escherichia coli, UniProt P77488, R99A)",,,"concentration not given, variant enzyme",relative to: wild type,Ki fold change,10 fold

# Some of these lines once more:
SMILES,target,assay,system,setting,how to read,endpoint,result
O=C(Nc1cccnn1)N1CCC(=Cc2cccc(Oc3ccc(C(F)(F)F)cn3)c2)CC1,"muscarinic receptor, rat",binding,,"50 µM, with: [3H]oxotremorine M",,inhibition,38%
Nc1ncc(-c2nc(N3CCOCC3)nc(N3CCOCC3)n2)c(C(F)F)n1,"MTOR (Homo sapiens, UniProt P42345)","enzyme activity, inhibitor",,10 µM,,remaining activity,0%
CC(C)(COP(=O)(O)OP(=O)(O)OCC1OC(n2cnc3c(N)ncnc32)C(O)C1OP(=O)(O)O)C(O)C(=O)NCCC(=O)NCCSC(=O)CC(O)(CC(=O)O)C(=O)O (stereo not drawn),"gltA (Thermoplasma acidophilum, UniProt P21553, D318G)","citryl-CoA hydrolysis, substrate",,concentration not given,relative to: wild type over mutant,decrease in hydrolysis activity,~2300 fold
O=C(Nc1cnccc1Cl)N1CCN(Cc2ccc3c(c2)OC(F)(F)O3)CC1,"HIPK2 (Homo sapiens, UniProt Q9H2X6)","kinase activity, inhibitor",,"50 µM, with: myelin basic protein substrate",,inhibition,4%
Cc1cccc(C)c1OCC(=O)N[C@@H](Cc1ccccc1)[C@@H](O)C[C@H](Cc1ccccc1)NC(=O)[C@H](C(C)C)N1CCCNC1=O,"Ribosomal processing cysteine protease Prp (prp, Staphylococcus aureus, UniProt Q2FXS9, N63Q)","enzyme activity, inhibitor",,"10 µM, prp 21.4 nM, with: FITC peptide substrate 0.5 µM",,inhibition,34.4 ± 17.7%
O=C(O)COP(=O)(O)O,"TPI1 (Saccharomyces cerevisiae, UniProt P00942, S211G/Y208T)","enzyme activity, competitive inhibitor, GPDH/NADH-coupled",,"pH 8.9, 25 °C, ionic strength 0.1 NaCl, with: glyceraldehyde 3-phosphate substrate",relative to: mutant over wild type,Ki ratio,6.5
